Experimental data gathered from unrelated publications.
Each numbered part is a random draw from the data of one study; scales do not carry over between parts.

Block 1
Target: Histone acetyltransferase KAT6A, winged helix 2, GST fusion (KAT6A, Homo sapiens, UniProt Q92794, residues 85-181)
Technique: protein binding microarray
Form: double-stranded DNA, one strand shown
Matrix: in vitro
Concentration: not given
Notes: 8-mer, flanks averaged, mean of 2 arrays, mostly near background
Relative to: not given
Direction: higher = stronger binding
Target sequence (chain): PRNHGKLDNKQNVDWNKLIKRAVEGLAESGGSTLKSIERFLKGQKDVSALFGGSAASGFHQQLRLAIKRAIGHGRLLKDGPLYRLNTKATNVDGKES
Strand | E-score
AAACAGGT | -0.134
ATTGTCCC | -0.177
CCTGCACA | -0.187
ATGTACGA | -0.27
AAAGGACC | 0.0319
ACCAGGTC | -0.123
ATGCTGTC | 0.0433
CGGATCAC | 0.0609
GGAAGCGA | 0.108
GAGATAAA | 0.159
ATCGACTA | -0.0668
ACGCGCCC | 0.143
CCCATAAC | -0.0606
CCGAGCGC | 0.236
CGCAGTTA | 0.0515
CTACGGCA | 0.0192
CAAACCAG | 0.0629
ACCATATC | -0.128
ACGTGAGT | -0.154
ATCGCTAC | -0.19

Block 2
Target: RNA binding protein fox-1 homolog 2, RRM domain, GST-SBP tag (RBFOX2, Homo sapiens, UniProt O43251-10, residues 100-194)
Technique: RNA Bind-n-Seq
Form: RNA
Matrix: in vitro
Concentration: 365 nM
Notes: natural RNA segment, single round, ends assumed
Relative to: no-protein control
Direction: higher = stronger binding
All sequences stand within: GGGAGUUCUACAGUCCGACGAUC … UGGAAUUCUCGGGUGCCAA
Target sequence (chain): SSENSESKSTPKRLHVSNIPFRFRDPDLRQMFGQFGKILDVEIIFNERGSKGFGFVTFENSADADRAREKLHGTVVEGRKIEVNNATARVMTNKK
Strand | RBNS enrichment (R)
ACAGUAUGUUUGUCAGCCAACUGAUUUAAAAGGCCUUUAACUGUUUUGGUUGUUGUUUUUUUUUUAAGCCACUCUCCCCUUCCUAUGAGGAAGAAUUGAGAGGGGCACCU | 0.441
GAAAUCACAGGCAUUGGGCUCUGUUUUGACACCAUUCAUUGGACUGCGGGACAGUCAUUCUUUACGUUCUCUCUUGAGCUGGUGAGAGAGGAGGAAGAGGGAAGUCAAGA | 0.923
GCUCUAAGAGCACUGUGCUUGGGAAAGUUGUGAUUAACAGCUUUUAAGAGGGCCCCUACCCCCAGUCCUUUGGGCAUUUUCUUUGAGCUGUUAGGUUUUGCUUUAUUUAA | 0.569
AUGUAGAGCAUAUCUGUUAUAUGUUUAUGUAACUAUCAAAUGGUUAUUUGUUACUAAAGCUAUAUUUCUGAUAAAAAAUAUUUUAGGAUAAUUGCCUACAGAGGGAUUUA | 0.51
AUCACAAGGAUAAUAGAGUAGCCUAAAAUUACUAUUCUUGGUUCUUAUUUAAGUAUGGAAUAUUCAUUUUACUCAGAAUAGCUGUUUUGUGUAUAUUGGUGUAUAUUAUA | 0.32
UCUUUUUUCCAUGGUCUCAUCUCUUGCCCUGUUGUGGAGUCUGUCUUCGGUGUCCUCCACACUGACACAGAUCCCCUCCUCAUGGUCGGCAGUUGUGCCCGUUUUUUGAC | 0.301
AGACUUGCUGUUGCCUGACAAUUAACUCACUGUGAGGAUAGGCACGCACGCUUUUCAUAAUUAACUGGUGCUUUGAAACCUUUCUUAUGGAAGAAAAAUCUCAACCAAAG | 0.477
GCUUGUGUGGUGGCUUCUUGUCCUUCUCUUUGACUUCUGUGGCAUGGUGCUAGUGCAUGUACCCUGUGGUAUUGCCCCUCUGUCCGUAGUGUGAACUGUCCUGUGAGCUU | 6.94
GUGUGAUGUUGUGUUGCUCACACACGCCACCCAGCCACCCAUGCGCUGCCUGACCACAGCAACCCCCUCCCGUGCGGCAGACGUCACUCCUCGCAUCGUGAGCUGAGGCU | 2.34
AUUCAGAGUGGGCCGGGCCCCUGGGCGAGACACAGCUACCUCUGUUGGCAUCUUUUUAAUACCAGGAACCCAGCGGCUCCAGCCACUGAGCAGCUAAAUAAAGUUGGAAA | 0.35
CACGUGCUCCGUGGUACUUAGAGCCCUGGGGGCCCCGCUCGGACUCCGGGUCUCCCUAGGAUAUGCCCCAGUAGCAUUUGCUGUGUAGUCUGUGUGUGAAAUUUGGGCAU | 0.418
CCAGGCUGUGGGACAGCUGCCUUCCCACGAAAGUGUAAAGCAGUAUUAAGAUCAUUACUGCAUGUGCCCUAAAAACCCAAGUUUUCUAUUCCCUUAGGACAGAAAAUUGC | 0.731

Block 3
Target: TAR DNA-binding protein 43, full length, His tag (TARDBP, Homo sapiens, UniProt Q13148, residues 1-414)
Technique: RNA Bind-n-Seq
Form: RNA
Matrix: in vitro
Concentration: 20 nM
Notes: 6-mer, flanks averaged, single round
With: 150 mM KCl
Relative to: input library
Direction: higher = stronger binding
Strand | 6-mer enrichment (R)
CCAACC | 0.636
UAGUUA | 0.616
GGGAGG | 10.6
UUGAGC | 0.766
GGCACU | 1.02
UGUGAA | 1.06
UCUCGA | 0.564
UGGUCC | 0.77
GUAGCU | 0.814
UUUGCC | 0.668
UUCGCC | 0.59
AGGAAA | 0.902
CACUCU | 0.574
UCGGGG | 3.42

Block 4
Target: Fragile X messenger ribonucleoprotein 1, C-terminal low-complexity region (Fmr1, Mus musculus, UniProt P35922)
Technique: RNA Bind-n-Seq
Form: RNA
Matrix: in vitro
Concentration: 200 nM
Notes: whole 134-nt RNA, ends assumed
With: 150 mM KCl
Relative to: input library
Direction: higher = stronger binding
All sequences stand within: GGGAGUUCUACAGUCCGACGAUC … UGGAAUUCUCGGGUGUCAAGG
Strand | log2 enrichment
UCCUGUGCUACACAUCGUAUGUACCGAAUCGGAAAAAAAGGAAAAAAAGGAAAAAAAGGGAAAGUAUUAUGUUACGCCGUUCGGAUCUGC | -0.236
ACCAUGCAGGUGGGCAUCUUUGGGAAGUGGGGCAAGGGGGGGAUAGGGAGGGGGGUAACACUCUGGGAACAGGUGGUCCCAGGUCGUUUC | 0.721
GUCCUGUGCUACACAUCGUAUGUACCGAAUCGGGGAAAGGGGUUUUUGGGGAAAGGGGAAAGUAUUAUGUUACGCCGUUCGGAUCUGCAC | 0.516
UCCUGUGCUACACAUCGUAUGUACCGAAUCGGGGAAAAAGGGGUGGGGAAAAAAAGGGGAAAGUAUUAUGUUACGCCGUUCGGAUCUGCA | 0.524
CCUGUGCUACACAUCGUAUGUACCGAAUCGGGGAAAAAAGGGAAAAAAGGGGAAAAAAGGGAAAGUAUUAUGUUACGCCGUUCGGAUCUG | -0.453
UAACUUUAGAGGAGGAUCUGAUGGAUAUGGCAGUGGACGUGGAUUUUGGGAUGGCUAUAAUGGGUAUGGAGGAGGACCUGGAGGUGGCAA | 0.241
UAACUUUAGAGGAGGAUCUGAUGGCUAUGGCAGUGGACGUGGAUUUGGGGAUGGCUAUAAUGGGUAUGGAGGAGGACCUGGAGGUGGCAA | 0.285
CCUGUGCUACACAUCGUAUGUACCGAAUCGGGGAAAAAAAGGGGUGGGGAAAAAAAGGGGAAAGUAUUAUGUUACGCCGUUCGGAUCUGC | 0.147
UGGAGAAGCGCUACCUGGCUGCUCAGCGUGAGGCAACAUCCAUCCAUGACCUCAAUGACAAGCUGGAGAAUGAGCUGGCCAACAAGGAGU | -1.05
UAACUUUAGAGGAGGGUCUGAUGGAUAUGGCAGUGGACGUGGAUUUGGGGAUGGCUAUAAUGGGUAUGGAGGAGGACCUGGAGGUGGCAA | 0.26

Some of these lines once more (block 1):
Strand | E-score
ACCAGGTC | -0.123
ATGCTGTC | 0.0433
CGGATCAC | 0.0609
GGAAGCGA | 0.108
GAGATAAA | 0.159
ATCGACTA | -0.0668
ACGCGCCC | 0.143
CCCATAAC | -0.0606
